Published values gathered from unrelated publications.
Each numbered part is a random draw from the data of one study; scales do not carry over between parts. Positions count from the first letter of the parent shown.

Block 1
Target: ABI1, truncated, D143A, DHFR fusion (Arabidopsis thaliana)
Method: DHFR PCA, deep sequencing
Sample: yeast
Notes: methotrexate growth selection, single substitutions
Added: (+)-ABA 0.032 µM
Relative to: wild-type fitted maximum
Direction: higher = stronger binding
Starting sequence: PYL1, truncated, DHFR fusion (Arabidopsis thaliana); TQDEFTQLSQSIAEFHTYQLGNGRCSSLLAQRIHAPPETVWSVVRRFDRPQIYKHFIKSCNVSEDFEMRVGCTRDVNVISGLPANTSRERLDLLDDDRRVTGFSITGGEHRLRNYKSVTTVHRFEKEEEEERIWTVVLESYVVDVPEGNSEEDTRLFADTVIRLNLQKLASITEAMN
Change	relative binding score [%]
K54F	-4.25
P36L	9.72
E89I	1.28
S104A	0.167
F15D	-2.81
S27D	3.12
R132N	43.8
G81V	-0.205

Block 2
Target: Sal-like protein 4, full length isoform B (SALL4, Homo sapiens, UniProt Q9UJQ4-2, residues 1-616)
Method: universal PBM
Form: double-stranded DNA, one strand shown
Sample: in vitro
Concentration: not given
Notes: 8-mer, flanks averaged, mean of replicates
Direction: higher = stronger binding
Residues (chain): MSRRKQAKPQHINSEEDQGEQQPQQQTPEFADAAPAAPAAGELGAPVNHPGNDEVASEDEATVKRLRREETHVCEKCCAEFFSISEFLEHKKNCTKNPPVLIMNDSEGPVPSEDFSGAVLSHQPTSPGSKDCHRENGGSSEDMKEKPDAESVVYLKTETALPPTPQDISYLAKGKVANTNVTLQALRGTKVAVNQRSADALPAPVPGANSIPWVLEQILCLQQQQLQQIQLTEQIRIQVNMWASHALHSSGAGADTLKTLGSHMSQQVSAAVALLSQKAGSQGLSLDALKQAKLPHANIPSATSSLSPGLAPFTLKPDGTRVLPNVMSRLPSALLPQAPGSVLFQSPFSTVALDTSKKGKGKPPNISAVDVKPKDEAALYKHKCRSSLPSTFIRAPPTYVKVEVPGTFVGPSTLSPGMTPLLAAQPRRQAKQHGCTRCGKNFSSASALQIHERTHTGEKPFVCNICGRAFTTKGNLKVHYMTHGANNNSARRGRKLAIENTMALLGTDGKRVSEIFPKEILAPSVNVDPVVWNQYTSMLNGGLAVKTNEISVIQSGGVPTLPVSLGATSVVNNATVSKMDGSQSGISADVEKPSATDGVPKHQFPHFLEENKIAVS
Oligonucleotide	E-score
CTCGAGGC	-0.253
CAAAAGCA	0.0396
GTTGTGAA	0.178
GAATATTC	0.279
AATTACGC	0.141
TAGCGGGA	-0.14
ACAAGTGG	0.0421
ACAAAGAC	0.0669

Block 3
Target: Hepatocyte nuclear factor 3-alpha (Foxa1, Mus musculus, UniProt P35582, residues 1-468, full length assumed)
Sequence of UniProt P35582 (whole entry, looked up): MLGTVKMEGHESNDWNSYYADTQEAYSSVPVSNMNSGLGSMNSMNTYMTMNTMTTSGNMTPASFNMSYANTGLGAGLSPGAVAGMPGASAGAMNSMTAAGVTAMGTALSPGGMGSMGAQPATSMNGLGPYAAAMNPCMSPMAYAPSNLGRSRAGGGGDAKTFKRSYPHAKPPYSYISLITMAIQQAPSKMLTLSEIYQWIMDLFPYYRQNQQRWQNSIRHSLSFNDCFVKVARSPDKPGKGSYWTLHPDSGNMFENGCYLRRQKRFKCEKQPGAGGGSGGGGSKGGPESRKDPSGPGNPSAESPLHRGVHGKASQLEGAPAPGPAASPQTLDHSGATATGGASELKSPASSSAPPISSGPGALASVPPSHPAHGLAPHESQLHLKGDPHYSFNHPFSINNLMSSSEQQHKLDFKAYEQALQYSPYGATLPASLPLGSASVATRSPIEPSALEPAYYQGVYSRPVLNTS
Method: EMSA with sequencing
Form: double-stranded DNA, one strand shown
Sample: in vitro
Concentration: 10 and 20 nM
Notes: whole designed probe, mean of two concentrations, ends assumed
Relative to: negative control set to 0
Direction: higher = stronger binding
Shared flanks, not repeated: GTGAGCGGTGCCCATTGATGGGGAAC … TTTCACTGGGATCGTGGGGAC
Oligonucleotide	normalised bound fraction
GACTTTTACACAGGCATCATGGGAGTAAGCCCAAGATATTTTCTCACACTTGATTCCAGGCATGTGGGGTTTGGTTTCTTGATCAAATATCTGAGATTGCTCTGTTTACAAGTATCTGATGAGCAAAACCAACAGAGGTGCTCCAGACAGGCTGGCTGTGCTGATCCCTTGGAAAAGAATTAAACAAAACCCA	0.17 ratio
TCTTTAATTTGGATGACTCTCCTTAGAGCAGCCAAATCAGCTTCTTGCTGATAACAGTAATCAGGTTTTATACTAAAGTCCCCAGTTAGGCAGAGTAAACAGGAAGCAGCCTGTTATTGATCTGTGTTATGGAAGGTTCTTTTCCACTGAGGAGACTGAATATTTTATACTGAAACCTTTTACTTCCTGTACC	0.103 ratio
AAATAAGAAGCACATGTTAACTATTTAAAGTGCCTGGGAGTGTGATTCTTAATAACAAGACCAGGTGACTGCTAACAAGCCCAGGTGAGAAAAGTAATCTAGCTATGACTCAAACCCAGTCTACCTATTGAATTACGAACTTGCTTCCGAAGAACCAGACAGAGAGTCCTAAACCGGTCAAAAGCAAAGCAGG	0.0449 ratio
ACTTCCCCACTTCCATGTTGCAATTCCCTTCTCCAATAATGGGAAATTTGGTCTCATTATCCTCAATATGGCTATGTCTTTGCTCAATTTACTTGTTTGCTTAATGTAACCAGCATCCCAACTGCACTGGCTGCCTCTGTCTGCTGCTTCCACACTTTCCTCCTTTTCACTTCCTCAGACTTGGGGCATGCTG	0.305 ratio
ATATTTTACATACGTGTATTAAATATATATATATATAAATGTCTCCTGTTCTTTTTCAGTAATCATAGTGTTTTTACAATTATCTGTTACTATGTAAACATTTATTTCAAGGCATTGGTCACGTTACCTACCTACTCTTCCAGGGAATGGACATGCAGATTGCCTTCATACCCTCCCACCACAGGAAATGCTG	0.496 ratio
ATCTTCCCCCTCTTCCTTGCCCCACCAGCTCACCTTCCCGGGTTATTTGCAGATAGGAAAATAAATAAAGCCGGCATTCGTTAACCCTCTTCTGGCGCAAACTGCTGTTTGCTCTGGATGAATCATGGTCCTTTGGCGACGCCAGGCTCCGGGAGAGCAAAGATCAGCCTGCGGGCCATGATCCGGGGTGGCC	0.342 ratio
GGGGATTCTTTCATTATACAAATACATGTTATTTTTGAATTTCAGAAGAAATCATGATATGTCAATCTATTGAGTGCTAACTAAAAGTTCTCTTTGTTTACTTAGCTTTCTCTTAGTTGTAAGAAAGAAAAAGACGTCTTGCATGAAAATAGTACGTTGCGGGAAGAAATTGCCATGCTAAGACTGGAGCTAG	0.503 ratio
CCATCTCAGCTGAGGGTACTATCATCCACCCTGTGGCCACATCCAGGAATGTGTGTATCACCTGGGCTCTGAGGATGACATCAGCTCTTCTAAGTCATCTGAATGTCGGGTCTGTTCTAAAAGTCTCATCTGACAAGGAGATCTTTAAGGCTTTACTCCCTTAAAGGCTTTACTCCCATCATGATGGGATAAC	-0.0816 ratio

Mixed results
Starting sequence: viral docking peptide; KGVKRKLFAEDSS; partner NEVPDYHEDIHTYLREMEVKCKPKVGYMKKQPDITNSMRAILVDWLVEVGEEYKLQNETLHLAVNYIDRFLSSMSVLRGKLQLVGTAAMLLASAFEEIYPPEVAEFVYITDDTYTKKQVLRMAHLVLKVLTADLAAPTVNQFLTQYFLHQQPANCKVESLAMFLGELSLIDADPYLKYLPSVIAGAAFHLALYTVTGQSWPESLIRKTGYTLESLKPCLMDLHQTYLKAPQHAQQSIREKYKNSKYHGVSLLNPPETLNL
Change	target	test	system	setting	how to read	quantity	result
KGVKRKLFAEDKS [S12K]	CCNA2, cyclin fold, Cln2 fusion (human)	yeast growth competition, sequencing	yeast	strong parent motif	relative to: not given, higher = stronger binding	normalised enrichment score	6.14

Excerpt of the above (block 3):
Oligonucleotide	normalised bound fraction
ATATTTTACATACGTGTATTAAATATATATATATATAAATGTCTCCTGTTCTTTTTCAGTAATCATAGTGTTTTTACAATTATCTGTTACTATGTAAACATTTATTTCAAGGCATTGGTCACGTTACCTACCTACTCTTCCAGGGAATGGACATGCAGATTGCCTTCATACCCTCCCACCACAGGAAATGCTG	0.496 ratio
ATCTTCCCCCTCTTCCTTGCCCCACCAGCTCACCTTCCCGGGTTATTTGCAGATAGGAAAATAAATAAAGCCGGCATTCGTTAACCCTCTTCTGGCGCAAACTGCTGTTTGCTCTGGATGAATCATGGTCCTTTGGCGACGCCAGGCTCCGGGAGAGCAAAGATCAGCCTGCGGGCCATGATCCGGGGTGGCC	0.342 ratio
GGGGATTCTTTCATTATACAAATACATGTTATTTTTGAATTTCAGAAGAAATCATGATATGTCAATCTATTGAGTGCTAACTAAAAGTTCTCTTTGTTTACTTAGCTTTCTCTTAGTTGTAAGAAAGAAAAAGACGTCTTGCATGAAAATAGTACGTTGCGGGAAGAAATTGCCATGCTAAGACTGGAGCTAG	0.503 ratio
CCATCTCAGCTGAGGGTACTATCATCCACCCTGTGGCCACATCCAGGAATGTGTGTATCACCTGGGCTCTGAGGATGACATCAGCTCTTCTAAGTCATCTGAATGTCGGGTCTGTTCTAAAAGTCTCATCTGACAAGGAGATCTTTAAGGCTTTACTCCCTTAAAGGCTTTACTCCCATCATGATGGGATAAC	-0.0816 ratio
